Assay results of several laboratories.
Numbered parts are unrelated; each lists some results of a single study.

Study 1 — technique: RNA Bind-n-Seq; form: RNA; matrix: in vitro; tested at: 365 nM; baseline: no-protein control; reading: higher = stronger binding
Target: RNA binding protein fox-1 homolog 2, RRM domain, GST-SBP tag (RBFOX2, Homo sapiens, UniProt O43251-10, residues 100-194)
Setting: natural RNA segment, single round, ends assumed
Strand | RBNS enrichment (R)
GGGAGUUCUACAGUCCGACGAUCAAAGCUUUCUGUAUUUCAGAGAGACAUAAGUUACUAGAAAGUGAAAAGUGAAUAAAUAAGUCACAGAGAAUGUAAAUUUUGUACAGUAUUAGAAUGUGUAAAUGAAGCUUUGGAAUUCUCGGGUGCCAA | 1.78
GGGAGUUCUACAGUCCGACGAUCUAGUCUCCGUUUACUUUCUCUUCAUUGUUGAUAAGAGAAUGCCAAGCUGCGCGUUGUUCAGGCAGUUUACCCCUACUAGAGAAGAAAGGAAGAAACGCUAGAAGAAAACAUGGAAUUCUCGGGUGCCAA | 7.76
GGGAGUUCUACAGUCCGACGAUCAGCUAAUUGGACUUUUAUGGCUCUAUCUUUUCCUUCAGUGAAGAACCCUAUUUAAAACUGGGUCAUCAUUUGUCCUGUUCUAGCAAGAUAGUCUUCAGUUUCAUUUUCCUUGGAAUUCUCGGGUGCCAA | 0.493

Study 2 — technique: aptamer microarray, sandwich; form: DNA with 2'F-ANA; matrix: in vitro; tested at: 200 nM; with: Cy3 exosite-II aptamer, 400 nM; reading: higher = stronger binding
Target: Prothrombin, mature alpha-thrombin (F2, Homo sapiens, UniProt P00734)
Setting: whole 15-mer aptamer, many near background
Strand | mean fluorescence intensity
GGTTGGTGTGGTTGG (2'F-ANA at 3 5 8 9 10 11 13 14 15) | 53.6 a.u.
GGTTGGTGTGGTTGG (2'F-ANA at 1 2 5 6 8 9 10) | 54.6 a.u.
GGTTGGTGTGGTTGG (2'F-ANA at 1 2 4 5 6 7 8 9 12 13) | 76.7 a.u.
GGTTGGTGTGGTTGG (2'F-ANA at 3 4 8 10 11 12 13 14) | 175 a.u.

Study 3 — technique: competition protein-binding microarray; form: double-stranded DNA, one strand shown; matrix: in vitro; tested at: 2 µM; with: Cbf1 competitor, 0.05 µM; reading: higher = stronger binding
Target: Phosphate system positive regulatory protein PHO4, full length, GST-tagged (PHO4, Saccharomyces cerevisiae, UniProt P07270, residues 1-312)
Setting: whole 60-bp probe, lowest competitor level
Target sequence (chain): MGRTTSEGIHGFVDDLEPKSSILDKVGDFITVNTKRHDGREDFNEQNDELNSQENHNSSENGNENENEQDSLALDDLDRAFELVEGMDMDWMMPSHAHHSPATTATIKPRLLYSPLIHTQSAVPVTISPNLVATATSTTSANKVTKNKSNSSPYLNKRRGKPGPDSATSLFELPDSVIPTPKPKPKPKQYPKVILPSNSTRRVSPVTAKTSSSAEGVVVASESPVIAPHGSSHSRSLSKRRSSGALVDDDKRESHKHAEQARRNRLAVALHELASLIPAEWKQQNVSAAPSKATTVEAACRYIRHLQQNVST
Strand | fluorescence intensity [a.u.]
GTGACGAAAACGGATGCCATGTTCCAGCACCAACTGGTCTTGATTCGCTTGACGCTGCTG | 5500
GTCTTGTCTCATTTTCACGTGTGATTCCCCACTTCAGTCTTGATTCGCTTGACGCTGCTG | 10600
ATCGTTTATAGTGGGCATGTGGCTGGTTGAACAATGGTCTTGATTCGCTTGACGCTGCTG | 13800
CTTTCCCGATCTTGTCTGGTGGGTGTAGCACATTTGGTCTTGATTCGCTTGACGCTGCTG | 4720

Mixed results
Molecule | target | test | system | conditions | how to read | endpoint | result
PhoQ, residues 284 288 289 292 302 303 GLASVI | PhoP, residues 12 14 15 18 19 FWNTL (Escherichia coli, UniProt P23836) | Sort-seq, refers to: YFP reporter | E. coli | PhoQ-PhoP variant library, with: 10 µM Mg2+ | baseline: high Mg2+ state, higher = stronger signaling | fold induction | 16.1

Excerpt of the above (study 3):
Strand | fluorescence intensity [a.u.]
ATCGTTTATAGTGGGCATGTGGCTGGTTGAACAATGGTCTTGATTCGCTTGACGCTGCTG | 13800
